Measurements gathered from unrelated publications.
Each numbered part is a random draw from the data of one study; scales do not carry over between parts. Several values in a cell are separate wells, animals, samples, runs or records.

Block 1
Target: Replicase polyprotein 1ab, main protease (rep, Severe acute respiratory syndrome coronavirus 2, UniProt P0DTD1)
Read-out: enzyme activity
Mode: inhibitor
Tested at: 20 µM
Notes: hit confirmation, with DTT
SMILES | inhibition
COc1cc(C(=S)N2CCOCC2)ccc1O | -1%
C=C1c2cccc(O)c2C(=O)C2=C(O)[C@]3(O)C(=O)C(C(N)=O)=C(O)[C@@H](N(C)C)[C@@H]3[C@@H](O)[C@H]12 | 10.3%
O=C1C=Cc2cc(Br)ccc2C1=O | 83.1% and 37.4%
CC(C)Nc1cccnc1N1CCN(C(=O)c2cc3cc(NS(C)(=O)=O)ccc3[nH]2)CC1.CS(=O)(=O)O | 67.5%

Block 2
Cell line: HEK-293T
Read-out: pseudovirus infection
Method: FDA-approved drug library screen
Organism: VSV pseudotyped with SARS-CoV-2 spike
Tested at: 10 µM
Time: 16 h
Baseline: vehicle-treated
SMILES | GFP-positive cells [%]
CN1C[C@H](C(=O)N[C@]2(C)O[C@@]3(O)[C@@H]4CCCN4C(=O)[C@H](Cc4ccccc4)N3C2=O)C[C@@H]2c3cccc4[nH]cc(c34)C[C@H]21 | 99
Nc1ccn([C@@H]2O[C@H](CO)[C@@H](O)C2(F)F)c(=O)n1 | 95.7
C[C@H]1c2cccc(O)c2C(=O)C2=C(O)[C@]3(O)C(=O)C(C(N)=O)=C(O)[C@@H](N(C)C)[C@@H]3[C@@H](O)[C@@H]21 | 89.8
CCc1c(C)[nH]c2c1C(=O)C(CN1CCOCC1)CC2 (stereo not shown) | 70.8
CCCCC(CC)COC(=O)C(C#N)=C(c1ccccc1)c1ccccc1 (stereo not shown) | 28.7
Cc1cn([C@H]2C[C@H](N=[N+]=[N-])[C@@H](CO)O2)c(=O)[nH]c1=O | 105

Block 3
Target: RNA binding protein fox-1 homolog 2, RRM domain, GST-SBP tag (RBFOX2, Homo sapiens, UniProt O43251-10, residues 100-194)
Method: RNA Bind-n-Seq
Form: RNA
Sample: in vitro
Tested at: 365 nM
Notes: natural RNA segment, single round, ends assumed
Baseline: no-protein control
Direction: higher = stronger binding
All sequences stand within: GGGAGUUCUACAGUCCGACGAUC … UGGAAUUCUCGGGUGCCAA
Construct (chain): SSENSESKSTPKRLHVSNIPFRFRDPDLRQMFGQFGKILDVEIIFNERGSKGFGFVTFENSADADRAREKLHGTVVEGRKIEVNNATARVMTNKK
Strand | RBNS enrichment (R)
UUUAUUGCAUGCACUGUGACCUUGGGGGGAGACAAAGAGGGGGAUUGUACCCCCACCCCCUGCACCUCCCUGCGAUCUGGCUGGCUUGGAUCUCAUUUUUUAACCCCUUC | 3.04
GUUUGUUGGGGAGAAGAAGCACUUUUAAGGAAAAUGCUUCUUAUUUUUCCAAGGCAUUCAGAAGCAGAGAGGGAAAAGGGGCUGUGUGACCUAACAGGACAGAACUUUCU | 0.56
GAUGGAUCAUAGGAUUCUGAUUUUAUGUGAAAUUUUGUCUAAUUCAUUAAAGCAGUUGCUUUUCCUAUGCUGUUUCAUUUCACCGUCUUUGUCACCACCCGCCUAAGUAC | 0.492
AGAAAAAAAAGAUUUUCUUUACAUAAAGUGAAUCAAAUUUGACAUUAUUUUAGAUCCCAGAGAAAUCAGGUGUGAUUAGUUCUCCAGGCAUGAAUGCAUCGUCCCUUUAU | 3.5
AAUUAAUGACACUGAAGGAAUGAUGCAAAAACUUCCCAUGAUUCAUCACUGAAAAUAUGACUAAUAAAUGUCUCUUCCUUUUUCUUCCUGUCUCCAUCCCCAUGCCUUGU | 1.17
CGACUCUGUAGCCUUCUUGAAGCCCCCAGCCCUAAUCUCACCCUCUCCUCCAGUGUGGGCUUGACCAGGCUUGGCCUUGGGCUAUUUGGACUCAGGUGGGCCCUCUGAAC | 0.466
UAUCACAUAACAGGACCAUGUUUUUAACCUACCAUCAAGAGCCUGUAUUUUGAGUUAUUCCAACAGAGAUGAUGGAUUCCUGUAGAACUAGAGGUGGGUGACCUAUGGUU | 0.544
UAACUGCCACAGUGCUAUUUGUUUACCAUCAAAUUGUAUUGGUGUUUCCAGGGCUUGUUGGUACAAAUCAAAGCCAAGACCAAUUAAAAGAAAUGUAUUUUUAUCUUCGG | 0.309

Block 4
Target: Sal-like protein 4, full length isoform B (SALL4, Homo sapiens, UniProt Q9UJQ4-2, residues 1-616)
Method: universal PBM
Form: double-stranded DNA, one strand shown
Sample: in vitro
Tested at: not given
Notes: 8-mer, flanks averaged, mean of replicates
Direction: higher = stronger binding
Target sequence (chain): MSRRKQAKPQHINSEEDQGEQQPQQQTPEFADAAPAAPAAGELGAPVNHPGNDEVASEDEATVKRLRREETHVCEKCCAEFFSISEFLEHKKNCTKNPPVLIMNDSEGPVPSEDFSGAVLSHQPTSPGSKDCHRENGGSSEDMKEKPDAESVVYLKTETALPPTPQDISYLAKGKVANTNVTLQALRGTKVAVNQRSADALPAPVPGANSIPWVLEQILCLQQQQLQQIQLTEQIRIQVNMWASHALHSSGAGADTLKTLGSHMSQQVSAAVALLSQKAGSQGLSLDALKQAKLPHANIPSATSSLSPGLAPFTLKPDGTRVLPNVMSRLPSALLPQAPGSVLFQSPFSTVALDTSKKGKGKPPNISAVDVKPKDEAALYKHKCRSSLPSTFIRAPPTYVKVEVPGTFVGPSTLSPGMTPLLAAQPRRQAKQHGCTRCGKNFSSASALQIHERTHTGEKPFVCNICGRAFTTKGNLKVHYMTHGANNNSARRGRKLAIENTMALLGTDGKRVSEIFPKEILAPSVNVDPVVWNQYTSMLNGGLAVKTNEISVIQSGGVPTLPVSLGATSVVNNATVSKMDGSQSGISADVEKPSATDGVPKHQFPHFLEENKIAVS
Strand | E-score
CCCGACCA | -0.234
AAGCCTCC | -0.108
CGCACCTC | -0.193
CAATCGCA | 0.0343
TACCGCAA | 0.0958
CCAGATGG | -0.308
CACCCCGC | -0.182
TCCTAGAA | -0.0553

Block 5
Target: Replicase polyprotein 1ab, nsp13 helicase (rep, Severe acute respiratory syndrome coronavirus 2, UniProt P0DTD1)
Mode: inhibitor
Tested at: 20 µM
Structure (SMILES) | inhibition
COc1cccc(Nc2ncnn3ccc(CN4CC[C@@H](N)[C@H](O)C4)c23)c1 | 0.21%
COc1ccc(S(=O)(=O)Nc2nc(-c3cccc([N+](=O)[O-])c3)cs2)cc1OC | 9.68%
CC/C(=C(\c1ccc(O)cc1)c1ccc(OCCNC)cc1)c1ccccc1 | 10.8%
OC[C@H]1NCC[C@@H](O)[C@@H]1O | 1.06%
O/N=C/c1cc[n+](COC[n+]2ccc(/C=N/O)cc2)cc1 | -0.93%
CC(=O)OCC1=C(C(=O)O)N2C(=O)[C@@H](NC(=O)CCCC(N)C(=O)O)C2SC1 (stereo partly shown) | -4.4%
CCC1(c2ccc(N)cc2)CCC(=O)NC1=O (stereo not shown) | -2.51%
CS(=O)(=O)n1cc2c(n1)CN([C@H]1CO[C@H](c3cc(F)ccc3F)[C@@H](N)C1)C2 | 0.03%
CCCCN(CC)c1nc(C)nc2c1c(C)c(C)n2-c1c(C)cc(C)cc1C | -3.32%
NC(=O)c1cc(N2CC2)c([N+](=O)[O-])cc1[N+](=O)[O-] | 4.24%
CN(C)CCCN1c2ccccc2Sc2ccccc21 | -0.55%
Clc1cccc(-n2nnnc2NCc2ccccc2Oc2ccccn2)c1Cl | 10.3%
CC(C)(C(=O)O)c1ccc(C(=O)CCCN2CCC(OC(c3ccccc3)c3ccccc3)CC2)cc1 | -1.81%
C=CC(=O)Nc1cccc(Nc2nc(Nc3ccc(Oc4ccnc(C(=O)NC)c4)cc3)ncc2F)c1 | 2.8%
CN1C[C@@H](NS(=O)(=O)N(C)C)C[C@@H]2c3cccc4c3c(cn4C)C[C@H]21 | 4.15%
O=C(NCc1ccccc1)c1csc(Nc2ccncn2)n1 | 3.58%
O=S(=O)(c1ccccc1)N(CC(F)(F)F)c1ccc(C(O)(C(F)(F)F)C(F)(F)F)cc1 | -0.96%
C[C@]12CC[C@@H]3c4ccc(O)cc4CC[C@H]3[C@@H]1[C@@H](O)[C@@H](O)[C@@H]2O | 5.85%
C[C@@H]1COCCN1c1cc(=O)n2c(n1)N(Cc1cncc(Cl)c1)[C@H](C(F)(F)F)CC2 | 4.57%
COc1ccc(S(=O)(=O)N(C(C)=O)c2ccccc2/C=C/c2cc[n+]([O-])cc2)cc1 | -2.74%

For quick reference, copied from above (block 1):
SMILES | inhibition
C=C1c2cccc(O)c2C(=O)C2=C(O)[C@]3(O)C(=O)C(C(N)=O)=C(O)[C@@H](N(C)C)[C@@H]3[C@@H](O)[C@H]12 | 10.3%
COc1cc(C(=S)N2CCOCC2)ccc1O | -1%
O=C1C=Cc2cc(Br)ccc2C1=O | 83.1% and 37.4%
CC(C)Nc1cccnc1N1CCN(C(=O)c2cc3cc(NS(C)(=O)=O)ccc3[nH]2)CC1.CS(=O)(=O)O | 67.5%
